Measurements of several laboratories.
Protocols differ between the studies behind these lines. Numbers after ± are the reported error.
Organism: Escherichia coli

SMILES | test | system | conditions | how to read | MIC
CC1(C)SC2C(NC(=O)C(NC(=O)C3=C(O)C(c4ccccc4)NC3=O)c3ccccc3)C(=O)N2C1C(=O)O (stereo not shown) | broth microdilution | Keio mutant JW5086-3 | 18 h, ferrienterobactin permease gene | – | 25 µg/mL
C[C@@H](O)[C@H]1C(=O)N2C(C(=O)O)=C(S[C@@H]3CN[C@H](C(=O)Nc4cccc(C(=O)O)c4)C3)[C@H](C)[C@H]12 | – | BL21(DE3) carrying Ftu-1 | – | – | < 0.09 µg/mL
CC1(C)CC[C@]2(C(=O)O)CC[C@]3(C)C(=CC[C@@H]4[C@@]5(C)CC[C@H](O)C(C)(C)[C@@H]5CC[C@]43C)[C@@H]2C1 | – | NDM-9 | – | – | 512 µg/mL
CC[C@H](C)[C@H](NC(=O)CNC(=O)[C@H](CC(=O)O)NC(=O)[C@H](CCCNC(=N)N)NC(=O)[C@@H](NC(=O)[C@H](CC(N)=O)NC(=O)[C@H](CCCNC(=N)N)NC(=O)CNC(=O)[C@@H](NC(=O)[C@H](CCCCN)NC(=O)[C@H](CCC(=O)O)NC(=O)[C@@H](NC(=O)[C@H](CCCCN)NC(=O)[C@H](CCCCN)NC(=O)[C@H](C)NC(=O)[C@@H](NC(=O)[C@H](CCCCN)NC(=O)[C@H](C)NC(=O)[C@@H](N)CCCNC(=N)N)[C@@H](C)CC)[C@@H](C)CC)C(C)C)C(C)C)C(=O)N[C@H](C(=O)N[C@@H](CCCCN)C(=O)N[C@@H](C)C(=O)NCC(=O)N1CCC[C@H]1C(=O)N[C@@H](C)C(=O)N[C@H](C(=O)N[C@@H](C)C(=O)N[C@H](C(=O)N[C@H](C(=O)NCC(=O)N[C@@H](CCC(N)=O)C(=O)N[C@@H](C)C(=O)N[C@@H](C)C(=O)N[C@H](C(=O)N[C@H](C(=O)N[C@H](C(=O)N[C@@H](CCCCN)C(N)=O)C(C)C)C(C)C)[C@@H](C)O)C(C)C)C(C)C)C(C)C)[C@@H](C)CC | – | KCTC 1682, Mueller-Hinton broth | 16 h, 37 °C | growth inhibition over 99% | 4 µM
CC[C@H](C)[C@H](NC(=O)[C@H](CCCNC(=N)N)NC(=O)[C@H](CCC(N)=O)NC(=O)[C@@H](NC(=O)[C@@H](NC(=O)[C@H](CCCNC(=N)N)NC(=O)[C@@H](N)CCCCN)[C@@H](C)CC)C(C)C)C(=O)N[C@@H](C)C(=O)N[C@@H](CC(=O)O)C(=O)N[C@@H](Cc1ccccc1)C(=O)N[C@@H](CC(C)C)C(=O)N[C@@H](CCCNC(=N)N)C(N)=O | broth microdilution | K12 | 16 h, 37 °C | – | 112 ± 44 µM
CC[C@H](C)[C@H](NC(=O)[C@H](CC(C)C)NC(=O)[C@H](CCCNC(=N)N)NC(=O)[C@@H](N)CCCNC(=N)N)C(=O)N[C@@H](CCCNC(=N)N)C(=O)N[C@H](C(=O)N[C@@H](CC(=O)O)C(=O)N[C@H](C(=O)NCC(=O)N1CCC[C@H]1C(=O)N[C@H](C(=O)N[C@H](C(=O)N[C@@H](Cc1ccc(O)cc1)C(=O)N[C@@H](CC(=O)O)C(=O)N[C@@H](Cc1ccc(O)cc1)C(=O)N[C@@H](Cc1ccccc1)C(=O)N[C@@H](CCCCN)C(=O)N[C@@H](CC(=O)O)C(=O)N[C@@H](CCC(N)=O)C(=O)N[C@@H](CC(C)C)C(=O)N[C@@H](CC(C)C)C(=O)N[C@@H](CCCCN)C(=O)N[C@@H](CCCCN)C(N)=O)[C@@H](C)CC)[C@@H](C)CC)[C@@H](C)O)[C@@H](C)O | broth microdilution | KCTC 1682, Mueller-Hinton broth | 24 h, 37 °C | – | > 128 µM
CC[C@H](C)[C@H](NC(=O)CNC(=O)[C@H](C)NC(=O)[C@@H](NC(=O)[C@@H](NC(=O)[C@@H](NC(=O)[C@H](CCCNC(=N)N)NC(=O)[C@@H](NC(=O)[C@@H](NC(=O)[C@@H](NC(=O)[C@@H]1CCCN1C(=O)[C@H](Cc1c[nH]c2ccccc12)NC(=O)[C@@H](NC(=O)[C@H](CCCNC(=N)N)NC(=O)[C@H](CCCCN)NC(=O)[C@@H](NC(=O)[C@@H](N)CCCNC(=N)N)[C@@H](C)CC)C(C)C)C(C)C)C(C)C)[C@@H](C)CC)[C@@H](C)O)C(C)C)C(C)C)C(=O)N[C@@H](CC(N)=O)C(=O)N[C@@H](CC(C)C)C(=O)N[C@@H](Cc1ccc(O)cc1)C(=O)N[C@@H](CCCNC(=N)N)C(=O)N[C@@H](C)C(=O)N[C@H](C(=O)N[C@@H](CCCCN)C(=O)N[C@@H](CCCNC(=N)N)C(=O)N[C@@H](CCCCN)C(=O)O)[C@@H](C)CC | broth microdilution | ATCC 25922, Mueller-Hinton broth | 16 to 20 h, 37 °C | – | 1.41 µM
CC[C@H](C)[C@H](NC(=O)[C@H](CC(C)C)NC(=O)[C@@H](NC(=O)[C@H](CCCNC(=N)N)NC(=O)[C@H](CCCNC(=N)N)NC(=O)[C@H](CCCNC(=N)N)NC(=O)[C@@H](N)CCCNC(=N)N)[C@@H](C)CC)C(=O)N[C@@H](CCCCN)C(=O)N[C@@H](CCCCN)C(=O)N[C@H](C(=O)N[C@@H](CC(C)C)C(=O)N[C@@H](CCCCN)C(=O)N[C@@H](CC(C)C)C(=O)N[C@@H](CCCCN)C(=O)N[C@@H](CO)C(=O)N[C@@H](CO)C(=O)N[C@@H](C)C(=O)N[C@@H](Cc1ccc(O)cc1)C(N)=O)C(C)C | checkerboard | – | 24 h, 37 °C, alone, azithromycin plate | – | 64 µM
O=C(O)c1cccc(C(=O)O)n1 | – | NDM-1 producing | compound alone | – | > 2000 µM
CC(C)(C)OCC1NC(=O)C(C(=O)NC(C(=O)NC2C(=O)N3C2SC(C)(C)C3C(=O)O)c2ccccc2)=C1O (stereo not shown) | broth microdilution | isolate IU, CTX-M-14, TEM-1 | added: clavulanic acid 6 µg/mL | – | > 200 µg/mL
CC[C@H](C)[C@@H]1NC(=O)[C@H](CCCNC(=N)N)NC(=O)[C@@H](NC(=O)[C@H](CC(C)C)NC(=O)[C@@H](N)CCCNC(=N)N)CSSC[C@@H](C(=O)N[C@@H](CCCNC(=N)N)C(=O)O)NC(=O)[C@H](C(C)C)NC(=O)[C@H](CCCNC(=N)N)NC(=O)[C@H]([C@@H](C)CC)NC(=O)[C@H](C(C)C)NC(=O)[C@H](C(C)C)NC1=O | broth microdilution | NBRC 3972, Mueller-Hinton broth | 24 h, 37 °C | – | 50 µM
N=C(N)c1ccc(OCCCCCOc2ccc(C(=N)N)cc2)cc1 | – | mcr-1 | 20 h, compound alone | – | > 200 µg/mL
CN(C)c1cc(NC(=O)CNC(C)(C)C)c(O)c2c1C[C@H]1C[C@H]3[C@H](N(C)C)C(O)=C(C(N)=O)C(=O)[C@@]3(O)C(O)=C1C2=O | – | DH5α cloned blaKPC-144 | – | – | 0.125 µg/mL
C[C@@H](O)[C@H](NC(=O)[C@H](Cc1ccccc1)NC(=O)[C@H](Cc1c[nH]c2ccccc12)NC(=O)[C@H](Cc1ccccc1)NC(=O)[C@@H](NC(=O)[C@H](Cc1ccccc1)NC(=O)[C@H](CCCNC(=N)N)NC(=O)[C@@H](N)CCCNC(=N)N)[C@@H](C)O)C(=O)N[C@@H](Cc1ccccc1)C(=O)N[C@@H](CCCNC(=N)N)C(=O)N[C@@H](CCCNC(=N)N)C(N)=O | broth microdilution | 25922, Mueller-Hinton broth | 24 h, 37 °C, lowest concentration, 95% inhibition, added: BSA | – | 16 µM
c1ccc(CCOC2CCCc3c2[nH]c2ccccc32)cc1 (stereo not shown) | broth microdilution | O-19592 | – | – | > 128 µg/mL
CC[C@H](C)[C@H](NC(=O)[C@H](CCCCN)NC(=O)[C@@H](NC(=O)[C@H](Cc1ccc(O)cc1)NC(=O)[C@H](CCCCN)NC(=O)[C@H](CCCCN)NC(=O)CNC(=O)[C@H](CCCCN)NC(=O)[C@@H](NC(=O)[C@H](C)NC(=O)[C@H](CC(C)C)NC(=O)[C@H](Cc1c[nH]c2ccccc12)NC(=O)CNC(=O)[C@@H](NC(=O)[C@H](Cc1ccccc1)NC(=O)[C@H](CCCCN)NC(=O)[C@H](CC(C)C)NC(=O)[C@H](Cc1ccccc1)NC(=O)[C@H](C)NC(=O)CNC(=O)[C@@H](N)CCSC)C(C)C)[C@@H](C)O)C(C)C)C(=O)N[C@@H](C)C(=O)N[C@@H](Cc1c[nH]c2ccccc12)C(=O)N[C@@H](CC(=O)O)C(=O)N[C@@H](Cc1c[nH]cn1)C(=O)N[C@@H](CCCCN)C(=O)NCC(=O)N[C@H](C(=O)N[C@H](C(=O)N[C@@H](CCSC)C(=O)N[C@@H](CCCCN)C(=O)N[C@@H](Cc1c[nH]c2ccccc12)C(=O)N[C@@H](CC(C)C)C(=O)N[C@@H](CC(N)=O)C(=O)N[C@@H](C)C(=O)NCC(=O)N[C@@H](CCC(N)=O)C(=O)N[C@H](C(=O)N[C@@H](Cc1ccccc1)C(=O)N[C@H](C(=O)N[C@@H](Cc1c[nH]c2ccccc12)C(=O)N[C@H](C(=O)N[C@@H](Cc1ccc(O)cc1)C(=O)N[C@@H](CCC(=O)O)C(=O)N[C@@H](CCC(N)=O)C(=O)N[C@H](C(=O)N[C@@H](CCCCN)C(=O)N[C@@H](CCCCN)C(=O)N[C@@H](CC(C)C)C(=O)N[C@@H](Cc1c[nH]c2ccccc12)C(=O)N[C@H](C(=O)O)[C@@H](C)O)[C@@H](C)CC)C(C)C)[C@@H](C)O)[C@@H](C)O)[C@@H](C)CC)[C@@H](C)O | – | DH5α | 37 °C, non-formylated synthetic | – | > 62.5 µg/mL

Some of these lines once more:
SMILES | test | system | conditions | how to read | MIC
CC[C@H](C)[C@H](NC(=O)[C@H](CCCNC(=N)N)NC(=O)[C@H](CCC(N)=O)NC(=O)[C@@H](NC(=O)[C@@H](NC(=O)[C@H](CCCNC(=N)N)NC(=O)[C@@H](N)CCCCN)[C@@H](C)CC)C(C)C)C(=O)N[C@@H](C)C(=O)N[C@@H](CC(=O)O)C(=O)N[C@@H](Cc1ccccc1)C(=O)N[C@@H](CC(C)C)C(=O)N[C@@H](CCCNC(=N)N)C(N)=O | broth microdilution | K12 | 16 h, 37 °C | – | 112 ± 44 µM
CC[C@H](C)[C@H](NC(=O)[C@H](CC(C)C)NC(=O)[C@H](CCCNC(=N)N)NC(=O)[C@@H](N)CCCNC(=N)N)C(=O)N[C@@H](CCCNC(=N)N)C(=O)N[C@H](C(=O)N[C@@H](CC(=O)O)C(=O)N[C@H](C(=O)NCC(=O)N1CCC[C@H]1C(=O)N[C@H](C(=O)N[C@H](C(=O)N[C@@H](Cc1ccc(O)cc1)C(=O)N[C@@H](CC(=O)O)C(=O)N[C@@H](Cc1ccc(O)cc1)C(=O)N[C@@H](Cc1ccccc1)C(=O)N[C@@H](CCCCN)C(=O)N[C@@H](CC(=O)O)C(=O)N[C@@H](CCC(N)=O)C(=O)N[C@@H](CC(C)C)C(=O)N[C@@H](CC(C)C)C(=O)N[C@@H](CCCCN)C(=O)N[C@@H](CCCCN)C(N)=O)[C@@H](C)CC)[C@@H](C)CC)[C@@H](C)O)[C@@H](C)O | broth microdilution | KCTC 1682, Mueller-Hinton broth | 24 h, 37 °C | – | > 128 µM
